Results gathered from unrelated publications.
“And” joins repeats or separate records; there may be more than shown. pIC50: −log10 of the molar value. Converted amounts (≈) assume the structure as drawn.

Compound | organism | test | system | conditions | how to read | endpoint | result
CC[C@H]1OC(=O)[C@H](C)[C@@H](O[C@H]2C[C@@](C)(OC)[C@@H](O)[C@H](C)O2)[C@H](C)[C@@H](O[C@@H]2O[C@H](C)C[C@H](N(C)C)[C@H]2O)[C@](C)(O)C[C@@H](C)CN(C)[C@H](C)[C@@H](O)[C@]1(C)O | Enterococcus faecalis and Enterococcus faecium | – | – | – | – | MIC90 | > 32 mg/L
CC(C)C[C@H](NC(=O)[C@H](CCCNC(=N)N)NC(=O)[C@H](Cc1c[nH]c2ccccc12)NC(=O)[C@H](CCCNC(=N)N)NC(=O)[C@H](Cc1c[nH]c2ccccc12)NC(=O)[C@H](Cc1c[nH]c2ccccc12)NC(=O)[C@H](Cc1c[nH]c2ccccc12)NC(=O)[C@H](CCCNC(=N)N)NC(=O)[C@H](Cc1c[nH]c2ccccc12)NC(=O)[C@@H](N)CCCNC(=N)N)C(N)=O | Candida albicans | broth microdilution | 17546, RPMI 1640-MOPS | 48 h, 30 °C | – | MIC | 8 µM (≈ 13.5 µg/mL)
O=C(O)c1ccc(-c2c[nH]c3ncc(-c4ccccc4)cc23)cc1C1CCCC1 | murine hepatitis virus | viral replication, nanoluciferase reporter | DBT | 1 µM, 10 h | reference: DMSO vehicle | inhibition | 28%
CC(=O)C1=CC[C@H]2[C@@H]3CCC4=CC(=O)CC[C@]4(C)[C@H]3C[C@@H](O)[C@]12C | Leishmania mexicana | parasite growth, propidium iodide flow cytometry | promastigotes | 48 h | – | pIC50 | 5.04
CCCCc1c([N+](=O)[O-])oc2ccc3ccccc3c12 | Enterobacter cloacae | REMA | – | – | – | MIC90 | > 32 mg/L
OB(O)c1csc2ccccc12 | Staphylococcus aureus | crystal violet | USA300 wild type | 100 µM | reference: wild type untreated | biofilm formation | 27.4% and 24.1% and 20.2%
Nc1ncnc2c([C@@H]3N[C@H](CO)[C@@H](O)[C@H]3O)c[nH]c12 | Measles morbillivirus | viral replication | Vero 76, Chicago | 29.6 µM | – | inhibition | 60%
N=C(N)NCCC[C@H](NC(=O)[C@H](Cc1c[nH]c2ccccc12)NC(=O)[C@H](CCCNC(=N)N)NC(=O)[C@H](Cc1c[nH]c2ccccc12)NC(=O)[C@H](Cc1c[nH]c2ccccc12)NC(=O)[C@H](Cc1c[nH]c2ccccc12)NC(=O)[C@H](CCCNC(=N)N)NC(=O)[C@H](Cc1c[nH]c2ccccc12)NC(=O)[C@@H](N)CCCNC(=N)N)C(=O)N[C@@H](Cc1c[nH]c2ccccc12)C(N)=O | Candida albicans | – | CGMCC 2.209 | no added salts | – | MIC | 8 µM
C[C@@H](N)[C@H]1CC[C@H](C(=O)Nc2ccncc2)CC1 | murine hepatitis virus | viral replication, nanoluciferase reporter | DBT | 1 µM | reference: DMSO vehicle | inhibition | 11%
CC[C@H](C)[C@H](NC(=O)[C@H](CCCNC(=N)N)NC(=O)[C@H](Cc1c[nH]c2ccccc12)NC(=O)[C@H](CCCNC(=N)N)NC(=O)[C@H](Cc1c[nH]c2ccccc12)NC(=O)[C@H](Cc1c[nH]c2ccccc12)NC(=O)[C@H](Cc1c[nH]c2ccccc12)NC(=O)[C@H](CCCNC(=N)N)NC(=O)[C@H](Cc1c[nH]c2ccccc12)NC(=O)[C@H](CCCNC(=N)N)NC(=O)CN)C(N)=O | Candida parapsilosis | broth microdilution | CGMCC 2.399, RPMI 1640-MOPS | 48 h, 30 °C | – | MIC | 8 µM (≈ 13.9 µg/mL)
CN(C)C/C=C/C(=O)Nc1cc2c(Nc3ccc(F)c(Cl)c3)ncnc2cc1O[C@H]1CCOC1 | murine hepatitis virus | viral replication, nanoluciferase reporter | DBT | 1 µM, 10 h | reference: DMSO vehicle | inhibition | 51%
COc1ccc2c(ccc3oc([N+](=O)[O-])cc32)c1 | Enterobacter cloacae | REMA | – | – | – | MIC90 | 1.5 mg/L (≈ 6.17 µM)
CC1(C)CC(=O)c2c(C(F)(F)F)nn(-c3ccc(C(N)=O)c(N[C@H]4CC[C@H](O)CC4)c3)c2C1 | human alphaherpesvirus 1 | – | K26 GFP, 3D skin equivalent, air-liquid | – | reference: CC50 over IC50 | selectivity index | > 250
CC(C)NC(=O)N1CC[C@@H](NC2=Nc3cc(F)ccc3N(CC(F)F)c3ccc(Cl)cc32)C1 | murine hepatitis virus | viral replication, nanoluciferase reporter | DBT | 1 µM | reference: DMSO vehicle | inhibition | -32%
CS(=O)(=O)CCCn1c(Cn2c(=O)n(CC(F)(F)F)c3ccncc32)cc2cc(Cl)ccc21 | respiratory syncytial virus | RT-qPCR | hospitalized infants 1-24 months, nasal swab | oral, 9, 6 or 5 mg/kg daily, day 5, high dose by age cohort | reference: baseline | LS mean viral load change | -3.06 log10 copies/mL
C#Cc1ccc(O)c(C=NNC(=O)c2ccc(Br)c(Br)c2)c1 | Aspergillus fumigatus | – | 293 | unit not given, added: voriconazole | lower = more synergy | FICI | 2
Nc1ncnc2c1ncn2[C@@H]1O[C@@H]2COP(=O)(O)O[C@H]3[C@@H](O)[C@H](n4cnc5c(=O)[nH]cnc54)O[C@@H]3COP(=O)(O)O[C@H]2[C@H]1O | West Nile virus | RNA sequencing Reactome analysis, measured: M Phase (R-HSA-68886) | HFF-1 | concentration not given, upregulated pathways, added: West Nile virus infection | reference: WNV-infected without compound | fold enrichment | 2.7
CN(c1ncccc1CNc1nc(Nc2ccc3c(c2)CC(=O)N3)ncc1C(F)(F)F)S(C)(=O)=O | murine hepatitis virus | viral replication, nanoluciferase reporter | DBT | 1 µM | reference: DMSO vehicle | inhibition | 34%
COc1cnc(OC)n2nc(NS(=O)(=O)c3c(OCC(F)F)cccc3C(F)(F)F)nc12 | Eclipta prostrata | fresh weight | – | 150 g ai/ha, post-emergence treatment | – | inhibition | 96.6% and 98.2% and 98%
N#Cc1ccc2c(ccc3oc([N+](=O)[O-])cc32)c1 | Mycobacterium avium subsp. hominissuis | REMA | ATCC 25291 | – | – | MIC90 | > 32 mg/L
COC(=O)C1=C(C)NC(C)=C(C(=O)OC(C)(C)CN(C)CCC(c2ccccc2)c2ccccc2)C1c1cccc([N+](=O)[O-])c1 (stereo not drawn) | Aspergillus fumigatus | Alamar blue | – | 125 µg/mL, 48 h, added: caspofungin 0.2 µg/mL | – | metabolic activity | 20.2% and 23.1%
CCCC(CCC)C(=O)O | Artemia franciscana | LC-MS/MS metabolomics, measured: 1-aminocyclopropanecarboxylic acid | larvae | concentration not given, 24 h, LC1 concentration | reference: vehicle | fold change | 1.95
Cc1cn(-c2cc(NC(=O)c3ccc4c(c3)CN(c3cncnc3)C[C@@H]4C)cc(C(F)(F)F)c2)cn1 | murine hepatitis virus | viral replication, nanoluciferase reporter | DBT | 1 µM, 10 h | reference: DMSO vehicle | inhibition | 16%
NS(=O)(=O)c1ccc(N/N=C2\C(=O)Nc3ccc(C(=O)NCCc4c[nH]cn4)cc32)cc1 | Aspergillus fumigatus | – | – | 20 µM | reference: untreated | metabolic activity | ≥ 80%
